Results from different studies.
Compare with care: the assays were run in different laboratories.

| SMILES | organism | test | test system | setting | MIC |
| --- | --- | --- | --- | --- | --- |
| CC(C)=CCc1c(O)ccc2c1O[C@H]1c3cc4c(cc3OC[C@@H]21)OC(C)(C)C=C4 | Shigella flexneri |  | DMST 4423 |  | inactive |
| CC[C@@H](C)[C@@H](NC(=O)[C@@H](C)NC(=O)[C@@H](CCCCN)NC(=O)[C@@H](CC(C)C)NC(=O)[C@@H](CC(C)C)NC(=O)[C@H](NC(=O)[C@@H](CCCCN)NC(=O)[C@@H](CC(C)C)NC(=O)[C@@H](C)NC(=O)[C@@H](CCCCN)NC(=O)[C@@H](CCCCN)NC(=O)[C@@H](CCCCN)NC(=O)[C@@H](C)NC(=O)[C@@H](CCCCN)NC(=O)[C@@H](CO)NC(=O)[C@@H](Cc1ccccc1)NC(=O)[C@H](NC(=O)[C@@H](CCCCN)NC(=O)[C@@H](CC(C)C)NC(=O)[C@@H](Cc1ccccc1)NC(=O)[C@@H](CO)NC(=O)[C@@H](CCCCN)NC(=O)[C@@H](Cc1c[nH]c2ccccc12)NC(=O)[C@@H](CCCCN)NC(C)=O)[C@H](C)O)[C@H](C)O)C(=O)N[C@H](CO)C(=O)N[C@H](CCCCN)C(N)=O | Acinetobacter baumannii |  | 884, Mueller-Hinton broth | 24 h, 37 °C | 0.7 µM |
| C[C@@H](c1ccn(Cc2ccc(I)cc2)n1)[C@](O)(Cn1cnnn1)c1ccc(F)cc1F | Aspergillus fumigatus | growth, broth microdilution | 7544 | 48 h, 35 °C, ≥50% inhibition | > 64 µg/mL |
| N#Cc1ccc2cccc(O)c2n1 | Serratia marcescens | microbial growth, agar dilution | ATCC8100 |  | > 1500 µM |
| Cc1ccc(Cn2ccc([C@H](C)[C@](O)(Cn3cnnn3)c3ccc(F)cc3F)n2)cc1 | Aspergillus fumigatus | growth, broth microdilution | 7544 | 48 h, 35 °C, ≥50% inhibition | > 64 µg/mL |
| O=c1c2ccccc2sn1-c1cc(Br)cc(Br)c1 | Candida parapsilosis | growth, broth dilution | ATCC 22019 | MIC-0 | 6.25 µg/mL |
| COc1cccc(C2Nc3ccccc3C3=[O+][Cu-2]4([Cl])[O]c5c(cccc5OC)C=[N+]4N32)c1O (stereo not drawn) | Mycolicibacterium smegmatis | broth microdilution | ATCC 700084 | 3 days | 64 µg/mL |
| COc1ccc2c3c(oc2c1CC=C(C)C)-c1cc(CC=C(C)C)c(O)cc1OC3 | Shigella flexneri |  | DMST 4423 |  | inactive |
| CC[C@@H](C)[C@@H](NC(=O)[C@@H](C)NC(=O)[C@@H](CCCCN)NC(=O)[C@@H](CC(C)C)NC(=O)[C@@H](C)NC(=O)[C@H](NC(=O)[C@@H](CCCCN)NC(=O)[C@@H](CC(C)C)NC(=O)[C@H](NC(=O)[C@@H](CCCCN)NC(=O)[C@@H](CCCCN)NC(=O)[C@@H](CCCCN)NC(=O)[C@@H](C)NC(=O)[C@@H](CCCCN)NC(=O)[C@@H](CO)NC(=O)[C@@H](Cc1ccccc1)NC(=O)[C@H](NC(=O)[C@@H](CCCCN)NC(=O)[C@@H](CC(C)C)NC(=O)[C@@H](Cc1ccccc1)NC(=O)[C@@H](CO)NC(=O)[C@@H](CCCCN)NC(=O)[C@@H](Cc1c[nH]c2ccccc12)NC(=O)[C@@H](CCCCN)NC(C)=O)[C@H](C)O)C(C)C)[C@H](C)O)C(=O)N[C@H](CO)C(=O)N[C@H](CCCCN)C(N)=O | Acinetobacter baumannii |  | 1012, Mueller-Hinton broth | 24 h, 37 °C | 1.3 µM |
| Oc1c(Br)cc(Br)c2nc3cc(Cl)ccc3nc12 | Staphylococcus epidermidis | broth microdilution | MRSE 35984 |  | 0.15 µM |
| CCCn1ccc([C@H](C)[C@](O)(Cn2cnnn2)c2ccc(F)cc2F)n1 | Aspergillus fumigatus | growth, broth microdilution | 7544 | 48 h, 35 °C, ≥50% inhibition | > 64 µg/mL |
| CCCCCCCCCC1CC2CCC3CC(CCCCCCCCC)NC(=N1)N23 (stereo not drawn) | Aspergillus fumigatus | fungal growth | ATCC 204305 |  | 12 µM |
| Oc1c(Br)cc(Br)c2nc3cc(C(F)(F)F)ccc3nc12 | Staphylococcus epidermidis | broth microdilution | MRSE 35984 |  | 0.1 µM |
| CC[C@@H](C)[C@@H](NC(=O)[C@@H](C)NC(=O)[C@@H](CCCCN)NC(=O)[C@@H](CC(C)C)NC(=O)[C@@H](C)NC(=O)[C@H](NC(=O)[C@@H](Cc1c[nH]cn1)NC(=O)[C@@H](CC(C)C)NC(=O)[C@H](NC(=O)[C@H](NC(=O)[C@@H](CCCCN)NC(=O)[C@H](NC(=O)[C@@H](C)NC(=O)[C@@H](CO)NC(=O)[C@@H](CCCCN)NC(=O)[C@@H](Cc1ccccc1)NC(=O)[C@H](NC(=O)[C@@H](CCCCN)NC(=O)[C@@H](CC(C)C)NC(=O)[C@@H](Cc1ccccc1)NC(=O)[C@@H](CO)NC(=O)[C@@H](CCCCN)NC(=O)[C@@H](Cc1c[nH]c2ccccc12)NC(=O)[C@@H](CCCCN)NC(C)=O)[C@H](C)O)C(C)C)[C@H](C)O)C(C)C)[C@H](C)O)C(=O)N[C@H](CO)C(=O)N[C@H](CO)C(N)=O | Acinetobacter baumannii |  | 759, Mueller-Hinton broth | 24 h, 37 °C | 0.7 µM |
| O=[N+]([O-])c1ccc2c(c1)C=[N+]1N3C(=[O+][Cu-2]1([Cl])[O]2)c1ccccc1NC3c1cc([N+](=O)[O-])ccc1O (stereo not drawn) | Mycolicibacterium smegmatis | broth microdilution | ATCC 700084 | 3 days | 64 µg/mL |
| C[C@@H](c1ccn(Cc2cccc(Cl)c2F)n1)[C@](O)(Cn1cnnn1)c1ccc(F)cc1F | Aspergillus fumigatus | growth, broth microdilution | 7544 | 48 h, 35 °C, ≥50% inhibition | > 64 µg/mL |
| CC[C@@H](C)[C@@H](NC(=O)[C@@H](C)NC(=O)[C@@H](CCCCN)NC(=O)[C@@H](CC(C)C)NC(=O)[C@@H](CC(C)C)NC(=O)[C@H](NC(=O)[C@@H](CCCCN)NC(=O)[C@@H](CC(C)C)NC(=O)[C@@H](CCCCN)NC(=O)[C@@H](CCCCN)NC(=O)[C@@H](CCCCN)NC(=O)[C@@H](CCCCN)NC(=O)[C@@H](C)NC(=O)[C@@H](CCCCN)NC(=O)[C@@H](CO)NC(=O)[C@@H](Cc1ccccc1)NC(=O)[C@H](NC(=O)[C@@H](CCCCN)NC(=O)[C@@H](CC(C)C)NC(=O)[C@@H](Cc1ccccc1)NC(=O)[C@@H](CO)NC(=O)[C@@H](CCCCN)NC(=O)[C@@H](Cc1c[nH]c2ccccc12)NC(=O)[C@@H](CCCCN)NC(C)=O)[C@H](C)O)[C@H](C)O)C(=O)N[C@H](CO)C(=O)N[C@H](CCCCN)C(N)=O | Acinetobacter baumannii | broth microdilution | ATCC 19606 | 24 h, 37 °C | 0.6 µM |

| SMILES | organism | test | test system | setting | MIC |
| --- | --- | --- | --- | --- | --- |
| Oc1c(Br)cc(Br)c2nc3c(C(F)(F)F)cc(C(F)(F)F)cc3nc12 | Staphylococcus epidermidis | broth microdilution | MRSE 35984 | single representative determination | 0.1 µM |
| COc1ccc2c(oc3c4ccc(O)cc4oc(=O)c23)c1CC=C(C)C | Shigella flexneri |  | DMST 4423 |  | inactive |
| COc1cc(Cn2ccc([C@H](C)[C@](O)(Cn3cnnn3)c3ccc(F)cc3F)n2)ccc1F | Aspergillus fumigatus | growth, broth microdilution | 7544 | 48 h, 35 °C, ≥50% inhibition | > 64 µg/mL |
| COc1c(CC=C(C)C)c(O)cc2c1-c1oc3c(CC=C(C)C)c(O)ccc3c1CO2 | Shigella flexneri |  | DMST 4423 |  | inactive |
| Oc1c(Br)ccc2cccnc12 | Serratia marcescens | microbial growth, agar dilution | ATCC8100 |  | 35.7 µM |
| CC(C)c1ccc(Cn2ccc([C@H](C)[C@](O)(Cn3cnnn3)c3ccc(F)cc3F)n2)cc1 | Candida parapsilosis | CLSI broth microdilution | 22019 | 24 h | < 0.008 µg/mL |
| Oc1c(Cl)cc(Cl)c2cccnc12 | Morganella morganii | microbial growth, agar dilution |  |  | 150 µM |
| COc1c(CC=C(C)C)c(O)cc2c1[C@@H]1Oc3c(ccc(O)c3CC=C(C)C)[C@@H]1CO2 | Shigella flexneri |  | DMST 4423 |  | inactive |
| Oc1c(Br)cc(Br)c2nc3cc(Br)ccc3nc12 | Staphylococcus epidermidis | broth microdilution | MRSE 35984 |  | 0.3 µM |
| CO[C@@H](C(N)=O)[C@H](NC(=O)c1ccc(NC(=O)c2ccc([N+](=O)[O-])cc2)cc1)C(=O)Nc1ccc(C(=O)Nc2ccc(C(=O)Nc3ccc(C(=O)O)cc3)c(O)c2OC(C)C)cc1 | Serratia marcescens | microbial growth | DSM30121 |  | > 64 µg/mL |
| Oc1c(Br)cc(Br)c2nc3cc(Cc4ccccc4)ccc3nc12 | Staphylococcus epidermidis | microbial growth, broth dilution | 12228 |  | 0.1 µM |
| CC[C@@H](C)[C@@H](NC(=O)[C@@H](C)N)C(=O)N[C@H](CCCCN)C(=O)N[C@@H](C(=O)N[C@H](CCCNC(=N)N)C(=O)N[C@H](CCCCN)C(=O)N[C@H](CC(C)C)C(=O)N[C@H](Cc1ccccc1)C(=O)N[C@H](CCCCN)C(=O)N[C@H](CCCCN)C(=O)N[C@H](CC(C)C)C(=O)N[C@H](CC(C)C)C(=O)N[C@H](CCCNC(=N)N)C(N)=O)[C@H](C)CC | Escherichia coli | broth microdilution checkerboard | ATCC 25922, LB medium | added: ampicillin | 3.12 µg/mL |
| C[C@@H](c1ccn(Cc2ccc(C(F)(F)F)cc2)n1)[C@](O)(Cn1cnnn1)c1ccc(F)cc1F | Aspergillus fumigatus | growth, broth microdilution | 7544 | 48 h, 35 °C, ≥50% inhibition | 64 µg/mL |
| COc1ccc2c(c1CC=C(C)C)O[C@H]1c3cc(CC=C(C)C)c(O)cc3OC[C@@H]21 | Shigella flexneri |  | DMST 4423 |  | 128 µg/mL |
| C[C@@H](c1ccn(Cc2c(F)ccc(F)c2F)n1)[C@](O)(Cn1cnnn1)c1ccc(F)cc1F | Aspergillus fumigatus | growth, broth microdilution | 7544 | 48 h, 35 °C, ≥50% inhibition | > 64 µg/mL |
| Oc1c(Br)cc(Br)c2nc3cc(SC(F)(F)F)ccc3nc12 | Staphylococcus epidermidis | broth microdilution | MRSE 35984 | single representative determination | 0.1 µM |

Repeated from above:
| SMILES | organism | test | test system | setting | MIC |
| --- | --- | --- | --- | --- | --- |
| CO[C@@H](C(N)=O)[C@H](NC(=O)c1ccc(NC(=O)c2ccc([N+](=O)[O-])cc2)cc1)C(=O)Nc1ccc(C(=O)Nc2ccc(C(=O)Nc3ccc(C(=O)O)cc3)c(O)c2OC(C)C)cc1 | Serratia marcescens | microbial growth | DSM30121 |  | > 64 µg/mL |
| Oc1c(Br)cc(Br)c2nc3cc(Cc4ccccc4)ccc3nc12 | Staphylococcus epidermidis | microbial growth, broth dilution | 12228 |  | 0.1 µM |
| CC[C@@H](C)[C@@H](NC(=O)[C@@H](C)N)C(=O)N[C@H](CCCCN)C(=O)N[C@@H](C(=O)N[C@H](CCCNC(=N)N)C(=O)N[C@H](CCCCN)C(=O)N[C@H](CC(C)C)C(=O)N[C@H](Cc1ccccc1)C(=O)N[C@H](CCCCN)C(=O)N[C@H](CCCCN)C(=O)N[C@H](CC(C)C)C(=O)N[C@H](CC(C)C)C(=O)N[C@H](CCCNC(=N)N)C(N)=O)[C@H](C)CC | Escherichia coli | broth microdilution checkerboard | ATCC 25922, LB medium | added: ampicillin | 3.12 µg/mL |
| C[C@@H](c1ccn(Cc2ccc(C(F)(F)F)cc2)n1)[C@](O)(Cn1cnnn1)c1ccc(F)cc1F | Aspergillus fumigatus | growth, broth microdilution | 7544 | 48 h, 35 °C, ≥50% inhibition | 64 µg/mL |
